Results from different studies.
Lines come from different studies, so protocols differ.
Target: Dual specificity tyrosine-phosphorylation-regulated kinase 1B (DYRK1B, Homo sapiens, UniProt Q9Y463)

assay | setting | endpoint | result | Compound
enzyme activity, inhibitor | 1 µM | inhibition | 34% | CN1CC(Oc2cnc(C#N)cc2-c2ccn3nc(NC(=O)C4CC4)cc3c2)C1
binding, competition with immobilised ligand | 10 µM | remaining binding | 100% | Cc1cc([C@@H](C)Nc2ccccc2C(=O)O)c2nc(N3CCC(F)(F)CC3)c(C#N)c(=O)n2c1
enzyme activity, inhibitor | 1 µM | remaining activity | 110% | COc1cc(-c2cncc3c2CN(C)Cc2cc(N4CCNCC4)ccc2-3)cc(OC)c1OC
binding, competition with immobilised ligand | 1 µM | remaining binding | 100% | C=CC(=O)N1CCC(COCC(=O)N2CCN(c3nc(-c4cnc(N)nc4C(F)F)nc(N4CCOC[C@@H]4C)n3)CC2)CC1
cell-free assay, competition with immobilised ligand | 5 µM | remaining binding | 0.3% | FC(F)(F)Oc1cccc(-c2cnc3ccc(-c4ccncc4)nn23)c1
cell-free assay, competition with immobilised ligand | 25 µM | remaining binding | 45% | N#Cc1ccc(NC(=O)Nc2ccccc2)cc1
enzyme activity, inhibitor, radiometric | 1 µM | remaining activity | 86% | CNc1ncc2c(/C=C/C(=O)N3CCC(OC)CC3)nn(Cc3cccc(C(F)(F)F)c3)c2n1
binding, competition with immobilised ligand | 0.5 µM | remaining binding | 77% | CCCCC(=O)Nc1ccc(-c2ccc3ncn(CCC)c(=O)c3c2)cn1

A few entries again:
assay | setting | endpoint | result | Compound
cell-free assay, competition with immobilised ligand | 25 µM | remaining binding | 45% | N#Cc1ccc(NC(=O)Nc2ccccc2)cc1
